Assay results pooled from the literature.
Each line is one published result; not all experiments were run side by side. Numbers after ± are the reported error.
CYP2B6: Cytochrome P450 2B6 (CYP2B6, Homo sapiens, UniProt P20813)

SMILES = CCC(CC)O[C@@H]1C=C(C(=O)O)C[C@H](NC(=N)N)[C@H]1NC(C)=O; target or system = neuraminidase (Influenza A virus, UniProt C3W6G3); assay = enzyme kinetics; conditions = pH 6.15, together with: 500 µM 4-MUNANA; quantity = Ki; value = 46 ± 12 nM
SMILES = CCCCCc1cc(O)c2c(c1)OC(C)(C)c1cc(O)c(C)cc1-2; target or system = rat intestinal maltase; assay = inhibitor; quantity = Ki; value = 181000 nM
SMILES = CC1=CC(C)=[N+]2C1=Cc1ccc(CCC(=O)NCCOCCOCCOCCOCC(=O)N[C@H](C(=O)N3C[C@H](O)C[C@H]3C(=O)NCc3ccc(-c4scnc4C)cc3)C(C)(C)C)n1[B-]2(F)F; target or system = von Hippel-Lindau disease tumor suppressor, with elongin B/C (VHL, Homo sapiens, UniProt P40337); assay = binding, TR-FRET; conditions = 270 min, together with: BODIPY FL VH032; quantity = Kd; value = 2.99 nM
SMILES = CCCCCc1cc(O)cc2c1Oc1cc(O)cc(C(=O)CCCC)c1C(=O)O2; target or system = Endonuclease 8 2 (nei2, Mycobacterium tuberculosis, UniProt P9WNC1); assay = binding, surface plasmon resonance; conditions = GST-tagged wild-type protein; quantity = Kd; value = 74 nM
SMILES = CCC[C@@H](C(=O)c1ccccc1)N1CCCC1; target or system = SLC6A3 (Homo sapiens, UniProt Q01959, F76Y); assay = transporter uptake, inhibitor, radiometric; quantity = Ki; value = 60 nM
SMILES = CC(=O)NC1C(OC2C(CO)OC(OC3C(CO)OC(O)C(O)C3O)C(O)C2OC2(C(=O)O)CC(O)C(NC(C)=O)C(C(O)C(CO)OC3(C(=O)O)CC(O)C(NC(C)=O)C(C(O)C(CO)OC4(C(=O)O)CC(O)C(NC(C)=O)C(C(O)C(O)CO)O4)O3)O2)OC(CO)C(O)C1O (stereo not shown); target or system = hly (Listeria monocytogenes, UniProt P13128); assay = binding; quantity = Kd; value = 6.7 nM
SMILES = CCCCCn1cc(C(=O)c2cccc3ccccc23)c2ccccc21; target or system = CNR2 (Homo sapiens, UniProt P34972, I110L); assay = G protein activation, agonist, BRET; quantity = EC50; value = 11 nM
SMILES = CCCCCc1cc(O)c2c(c1)OC(C)(C)C1=C2[C@@H](O)[C@@](C)(O)CC1; target or system = rat intestinal maltase; assay = inhibitor; quantity = Ki'; value = 216000 nM
SMILES = CCCCCc1cc(O)c2c(c1)OC(C)(C)C1CCC(CO)=CC21 (stereo not shown); target or system = CYP2B6; assay = enzyme activity, inhibitor; test system = human liver microsomes; conditions = pH 7.4, unbound, fu,inc corrected, together with: bupropion; quantity = Ki; value = 260 ± 41 nM
SMILES = CCOC(=O)C=CC(CC1CCNC1=O)NC(=O)C(CC(C)C)NC(=O)C(NC(=O)OCc1ccccc1)C(C)OC(C)(C)C (stereo not shown); target or system = Replicase polyprotein 1ab, main protease (rep, Human coronavirus NL63, UniProt P0C6X5); assay = viral replication; quantity = EC50; value = < 10000 nM
SMILES = CC(=O)NC(Cc1ccc(Br)c(Cl)c1)C(=O)N[C@@H](C)C(=O)N1CCC[C@H]1C(=O)N1CCC[C@H]1C(=O)N[C@@H](CCC(=O)O)C(=O)N[C@@H](Cc1c[nH]cn1)C(=O)N[C@@H](CO)C(=O)N[C@H](C(=O)N[C@@H](C)C(N)=O)[C@@H](C)OP(=O)(O)O (stereo partly shown); target or system = HIPK1 (Homo sapiens, UniProt Q86Z02); conditions = 10 µM; quantity = inhibition; value = 0.99 ± 0.04%
SMILES = CCCC[C@H](NC(=O)CNC(=O)CNC(=O)c1ccc(NN)nc1)C(=O)N[C@H]1CC(=O)NCCCC[C@@H](C(N)=O)NC(=O)[C@H](Cc2c[nH]c3ccccc23)NC(=O)[C@H](CCCNC(=N)N)NC(=O)[C@@H](Cc2ccccc2)NC(=O)[C@H](Cc2c[nH]cn2)NC1=O [technetium-99m labelled]; test system = C57 mouse, B16/F1 melanoma, brain; conditions = 2 h, together with: NDP-MSH 6.07 nmol blockade; quantity = uptake; value = 0.01 ± 0.01 %ID/g
SMILES = C=C1C(=O)[C@]23[C@H](OC(=O)[C@H](C)N)[C@H]1CC[C@H]2[C@@]12CO[C@@]3(O)[C@H](O)[C@@H]1C(C)(C)CC[C@@H]2O; target or system = Replicase polyprotein 1ab, nsp9 (rep, Human coronavirus 229E, UniProt P0C6X1); assay = binding; quantity = Kd; value = 1000 ± 200 nM
SMILES = CCCCCCCCC(=O)NCc1ccc(O)c(OC)c1; target or system = mAb 6-AT6; assay = antibody binding, indirect competitive ELISA; conditions = together with: coating antigen 4-OVA; quantity = IC50; value = > 4 µg/mL
SMILES = N=C(N)NCCC[C@@H]1NC(=O)[C@H](CCCCNC(=O)CC[C@H](NC(=O)CCOCCOCCOCCOCCNC(=O)CN2CCN(CC(=O)O)CCN(CC(=O)O)CCN(CC(=O)O)CC2)C(=O)NCCCC[C@@H]2NC(=O)[C@@H](Cc3ccccc3)NC(=O)[C@H](CC(=O)O)NC(=O)CNC(=O)[C@H](CCCNC(=N)N)NC2=O)NC(=O)[C@@H](Cc2ccccc2)NC(=O)[C@H](CC(=O)O)NC(=O)CNC1=O [indium-111 labelled]; test system = female athymic nude mouse, U-87 MG tumour; conditions = intravenous, 3 µCi, 72 h, U-87 MG glioma xenograft; quantity = tumour uptake; value = 1.6 %ID/g
SMILES = CN[C@](C)(C[18F])C(=O)O; target or system = MDA-MB-468 tumour model; test system = host not given, pancreas; conditions = 1 h, tumour-bearing; quantity = tracer uptake; value = 25 %ID/g
SMILES = CCCCCc1cc(O)c2c(c1)OC(C)(C)C1CCC(C)=CC21 (single isomer, unassigned; (-)); target or system = CYP2B6; assay = inhibitor; test system = HEK293 overexpressing CYP2B6, recombinant microsomes; conditions = pH 7.4, total concentration, together with: bupropion; quantity = IC50; value = 10000 ± 6400 nM
SMILES = N=C(N)NCCC[C@@H]1NC(=O)[C@H](CCCCNC(=O)CNC(=O)CNC(=O)CNC(=O)CC[C@H](NC(=O)CCOCCOCCOCCOCCNC(=O)CC[C@H](NC(=O)CN2CCN(CC(=O)O)CCN(CC(=O)O)CCN(CC(=O)O)CC2)C(=O)NCCOCCOCCOCCOCCC(=O)N[C@@H](CCC(=O)NCC(=O)NCC(=O)NCC(=O)NCCCC[C@@H]2NC(=O)[C@@H](Cc3ccccc3)NC(=O)[C@H](CC(=O)O)NC(=O)CNC(=O)[C@H](CCCNC(=N)N)NC2=O)C(=O)NCC(=O)NCC(=O)NCC(=O)NCCCC[C@@H]2NC(=O)[C@@H](Cc3ccccc3)NC(=O)[C@H](CC(=O)O)NC(=O)CNC(=O)[C@H](CCCNC(=N)N)NC2=O)C(=O)NCC(=O)NCC(=O)NCC(=O)NCCCC[C@@H]2NC(=O)[C@@H](Cc3ccccc3)NC(=O)[C@H](CC(=O)O)NC(=O)CNC(=O)[C@H](CCCNC(=N)N)NC2=O)NC(=O)[C@@H](Cc2ccccc2)NC(=O)[C@H](CC(=O)O)NC(=O)CNC1=O [indium-111 labelled]; test system = athymic nude mice, female, U-87 MG glioma xenograft, tumour and liver; conditions = intravenous, 0.5 h; how to read = reference: tumour over liver; quantity = tumour to tissue ratio; value = 3.15 ± 0.81
SMILES = CCCCCn1cc(C(=O)c2ccc3c(c2)CC(C)(C)C3)c2ccccc21; target or system = CNR1 (Homo sapiens, UniProt P21554); assay = G protein activation, agonist, BRET; quantity = EC50; value = 1290 nM
SMILES = CCN(Cc1ccccc1)C(=O)CCc1nc(CN2CCN(C(=O)Cc3ccc(OC)c(OC)c3)CC2)no1; target or system = KCNQ5 (Homo sapiens, UniProt Q9NR82); assay = potassium current, opener, whole-cell patch clamp; test system = transfected cells; conditions = 30 nM, -10 mV; quantity = current density; value = 19.8 ± 2.54 pA/pF
SMILES = CCCCCn1cc(C(=O)c2ccc3ccccc3c2)c2ccccc21; target or system = CNR1 (Homo sapiens, UniProt P21554, L359V); assay = G protein activation, agonist, BRET; quantity = EC50; value = 85.1 nM
SMILES = CSCC[C@H](NC(=O)[C@@H]1CSSC[C@H](NC(=O)[C@H](CCCCN)NC(=O)[C@H](Cc2ccc(O)cc2)NC(=O)CNC(=O)[C@@H](N)CC(C(=O)O)C(=O)O)C(=O)N[C@@H](C(C)C)C(=O)N[C@H](Cc2c[nH]c3ccccc23)C(=O)N[C@@H](CCCCN)C(=O)N[C@@H]([C@@H](C)O)C(=O)N1)C(=O)N1C[C@H](O)C[C@H]1C(=O)N[C@@H](C)C(=O)O; target or system = SSTR5 (Homo sapiens, UniProt P35346); assay = β-arrestin recruitment, agonist; quantity = EC50; value = > 300000 nM
